{"data": "Results collected from several papers", "note": "Numbered parts are unrelated; each lists some results of a single study. Positions count from the first letter of the parent shown."}
{"data": "Sample 1", "target": "CCNE1, cyclin fold, Cln2 fusion (human)", "technique": "yeast growth competition, sequencing", "matrix": "yeast", "setting": "weak parent motif", "baseline": "not given", "direction": "higher = stronger binding", "starting sequence": "USP37 docking peptide (human); PSAKRSLGFLPQP"}
{"Variant": "PSAKRSAGFLPQP [L7A]", "normalised enrichment score": 0.276}
{"Variant": "PSAARSLGFLPQP [K4A]", "normalised enrichment score": 0.377}
{"Variant": "PSAKRSLGFLPAP [Q12A]", "normalised enrichment score": 0.615}
{"Variant": "PSAKRSLGFAPQP [L10A]", "normalised enrichment score": 0.0762}
{"Variant": "PSAKRSLGFLAQP [P11A]", "normalised enrichment score": 0.0245}
{"Variant": "PSAKRALGFLPQP [S6A]", "normalised enrichment score": 0.684}
{"data": "Sample 2", "target": "HLF, bZIP domain (human)", "technique": "DHFR protein complementation", "matrix": "yeast", "setting": "single substitutions, most at no-binding floor", "baseline": "wild-type JUN-FOS pair", "direction": "higher = stronger binding", "starting sequence": "JUN, bZIP domain (human); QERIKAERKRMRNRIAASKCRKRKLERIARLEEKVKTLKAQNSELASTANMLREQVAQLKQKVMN; partner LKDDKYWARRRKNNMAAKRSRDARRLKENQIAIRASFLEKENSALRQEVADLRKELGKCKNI"}
{"Variant": "T37Y", "binding fitness": "-1.11 natural log"}
{"Variant": "Q55D", "binding fitness": "-1.39 natural log"}
{"Variant": "T48A", "binding fitness": "-1.23 natural log"}
{"Variant": "T48G", "binding fitness": "-1.49 natural log"}
{"Variant": "A46L", "binding fitness": "-1.34 natural log"}
{"Variant": "E32M", "binding fitness": "-1.44 natural log"}
{"Variant": "K36V", "binding fitness": "-1.46 natural log"}
{"Variant": "K34R", "binding fitness": "-1.31 natural log"}
{"Variant": "R30F", "binding fitness": "-1.29 natural log"}
{"Variant": "A46N", "binding fitness": "-1.38 natural log"}
{"Variant": "T37A", "binding fitness": "-1.38 natural log"}
{"Variant": "A49H", "binding fitness": "-1.55 natural log"}
{"data": "Sample 3", "target": "UBE2E3 UBC core domain (UniProt Q969T4)", "technique": "yeast two-hybrid", "matrix": "yeast", "setting": "mostly zero background", "baseline": "not given", "direction": "higher = stronger interaction", "B1": "RNF43 RING domain (UniProt Q68DV7); chain SGSSCSSAPVCAICLEEFSEGQELRVISCLHEFHRNCVDPWLHQHRTCPLCMFNITEGDSFS", "B2": "TRIM52 RING domain (UniProt Q96A61); chain PMQTLQEEAVCAICLDYFKDPVSISCGHNFCRGCVTQLWSKEDEEDQNEEEDEWEEEEDEEAV", "B3": "TRIM15 RING domain (UniProt Q9C019); chain SLKVVHELPACTLCAGPLEDAVTIPCGHTFCRLCLPALSQMGAQSSGKILLCPLCQEEEQAETPMA", "B4": "PHF7 RING domain (UniProt Q9BWX1); chain IQHGHVGEESCILCCEDLSQQSVENIQSPCCSQAIYHRKCIQKYAHTSAKHFFKCPQCNNRKEFPQEML", "B5": "RNF32 RING domain (UniProt Q9H0A6); chain SLLQGDSVQPCPICKEEFELRPQVLLSCSHVFHKACLQAFEKFTNKKTCPLCRKNQYQTRVIH", "B6": "NSMCE1 RING domain (UniProt Q8WV22); chain RETYPDAVKICNICHSLLIQGQSCETCGIRMHLPCVAKYFQSNAEPRCPHCNDYWPHEIPKV", "B7": "MSL2 RING domain (UniProt Q9HCI7); chain LLPYFRQSLSCCVCGHLLQDPIAPTNSTCQHYVCKTCKGKKMMMKPSCSWCKDYEQFEENKQ", "B8": "ANKIB1 RING domain (UniProt Q9P2G1); chain LSPGDLDTSLCDICMCSISVFEDPVDMPCGHDFCRGCWESFLNLKIQEGEAHNIFCPAYDCFQLVPVDIIE", "B9": "PEX2 RING domain (UniProt P28328); chain DNTLATSGKECALCGEWPTMPHTIGCEHIFCYFCAKSSFLFDVYFTCPKCGTEVHSLQPLK", "B10": "TRIM55 RING domain (UniProt Q9BYV6); chain TMDNLEKQLICPICLEMFTKPVVILPCQHNLCRKCASDIFQASNPYLPTRGGTTMASGGRFRCPSCRHEVVLDRHG", "UniProt Q969T4, sequence (whole entry, looked up)": "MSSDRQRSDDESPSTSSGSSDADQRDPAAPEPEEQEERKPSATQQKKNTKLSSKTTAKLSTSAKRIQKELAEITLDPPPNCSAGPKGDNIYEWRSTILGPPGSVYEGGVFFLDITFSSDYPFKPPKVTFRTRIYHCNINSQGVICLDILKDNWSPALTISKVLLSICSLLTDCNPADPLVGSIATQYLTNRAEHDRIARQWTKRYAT"}
{"Molecule": "B1 (RNF43 RING domain)", "lacZ reporter activity": 2790}
{"Molecule": "B2 (TRIM52 RING domain)", "lacZ reporter activity": 0}
{"Molecule": "QLQDEEDDSLCRICMDAVIDCVLLECGHMVTCTKCGKRMSECPICRQYVVRAVHVF (RNF34 RING domain (UniProt Q969K3))", "lacZ reporter activity": 0}
{"Molecule": "B3 (TRIM15 RING domain)", "lacZ reporter activity": 0}
{"Molecule": "B4 (PHF7 RING domain)", "lacZ reporter activity": 0}
{"Molecule": "B5 (RNF32 RING domain)", "lacZ reporter activity": 0}
{"Molecule": "KRQCSDVDDICSICQAEFQKPILLICQHIFCEECMTLWFNREKTCPLCRTVISDHINKW (RNFT1 RING domain (UniProt Q5M7Z0))", "lacZ reporter activity": 0}
{"Molecule": "B6 (NSMCE1 RING domain)", "lacZ reporter activity": 0}
{"Molecule": "B7 (MSL2 RING domain)", "lacZ reporter activity": 0}
{"Molecule": "B8 (ANKIB1 RING domain)", "lacZ reporter activity": 0}
{"Molecule": "B9 (PEX2 RING domain)", "lacZ reporter activity": 0}
{"Molecule": "B10 (TRIM55 RING domain)", "lacZ reporter activity": 0}
{"Molecule": "KIKDLNEHIVCCLCAGYFVDATTITECLHTFCKSCIVKYLQTSKYCPMCNIKIHETQPLL (PCGF1 RING domain (UniProt Q9BSM1))", "lacZ reporter activity": 0}
{"data": "Sample 4", "target": "RNA binding protein fox-1 homolog 2, RRM domain, GST-SBP tag (RBFOX2, Homo sapiens, UniProt O43251-10, residues 100-194)", "technique": "RNA Bind-n-Seq", "molecule type": "RNA", "matrix": "in vitro", "tested at": "365 nM", "setting": "natural RNA segment, single round, ends assumed", "baseline": "no-protein control", "direction": "higher = stronger binding", "constant ends, left off below": "GGGAGUUCUACAGUCCGACGAUC … UGGAAUUCUCGGGUGCCAA"}
{"Oligonucleotide": "AAUAAGUGGAAAAUACGGGAUGUACCCCUGGGGGAAAAGCCUGGGUUGGGUUUAGAAAGAUCUCAGGAAAAUGAGUUUCUCUUCCCUCAGGGUGGCUGUGAUACAGGUUC", "RBNS enrichment (R)": 0.676}
{"Oligonucleotide": "ACAAGGACUAAUCCUGGGUGUCUCUGAGACCCAUCUCCUGCCUAGACAUCCACCUCCAGAGCAACACUGGCCCCACAGUAAAAGAGGAAGUCUUGUACCUCAGGCAGGCC", "RBNS enrichment (R)": 0.55}
{"Oligonucleotide": "AAUCCAAAUAUCAAUUUGACAGAAUAACAAGGGUCAGAAAUUCAAAAUAGCUGUUAGACACCUUUGAUUCUUUGCUGCUCUCUGGUUAUGUAUGUGUGUUGUGCAUCUUC", "RBNS enrichment (R)": 0.753}
{"Oligonucleotide": "UACAGGAGCCAGACGCCAGGGCCUGCCCGGCCUCCUGUUCCUGCCCCCACCCACCACCUGCCUGGAGAGGAACGGGUCGGGUCCGUGUCGGAGAAGUGACAGGUCCCAGA", "RBNS enrichment (R)": 0.474}
{"Oligonucleotide": "GUGGUGUGUUUGCCUGGAAGUCCCUCGCCCACAGUGUGUGUUCACACCGACUCCACCUCAGAGCAUGGUGCCUCCGUUUUCCCUUCCUAGUGACCCCAGGUUUAGCAUCG", "RBNS enrichment (R)": 1.16}
{"Oligonucleotide": "CUUGACAUGCUGGUCUGGGGAGAGACAGGGCCUCUGCUGCCCUGUUCUUCACCCUCACAGUGAUACCUCCUUUCCUUGGGUCUCUUGGCCUCCAGACCCCCUCAAUAGAC", "RBNS enrichment (R)": 0.393}
{"Oligonucleotide": "AGCAUCUUCAAACUAAAGACUCCAAAAUGCUAACUCAGAAAGAAAGAAAAAACCCGUUUUCAAUUCUAAUGAAACAGCAACAACAUUUUUUUUAAUUAAAAAAAAAAUCA", "RBNS enrichment (R)": 0.76}
{"Oligonucleotide": "AGACAAGAAGUGCCCUUAUAAACCCCUGCAGCCCUGCAGCCCUGAAAUAAAUUUUGCAAUUAGUUUCAGUAGCAUUUGUGAAUUUGCAUUCUGAAUCGAGGUGUAGUCCC", "RBNS enrichment (R)": 0.672}
{"Oligonucleotide": "CACUUGGCGACCCUUCUGGUCUUGCUGGAGGGGUUUCCUGGGUAUAACCCAUUGGGCUGCCCAAGGCCAGCCAGCCUGAGCUCUCCUGCAAGACAGAGCCUGAUGUGGCA", "RBNS enrichment (R)": 0.64}
{"Oligonucleotide": "AGAGUAGGAAUGUCGGGGUUUCCAGUUAGAAAACCUUUAUUUUUGGAAACGGAAUAAAAAUCUCUUAGAAACUUUUGCAGAUAAUUUGAUGUUGGGCAAAUAUAUAUAAU", "RBNS enrichment (R)": 0.795}
{"Oligonucleotide": "GCAUAUCUUUAAUCACACCUAUACCUACCAUACUGCACUGUAGCCUUUGCAUGUGAGUAUUAUGUACUACAGUAAGGAAUGGAUGGCUCCUAACUAGCAUGCAACCCUUG", "RBNS enrichment (R)": 33.7}
{"Oligonucleotide": "AACAAGUCCCGCAAACCGGGGACGGAAGGACAUUUGACUUUUAUUUUUGUAUUUAAUUGACAUGAAUGUAAAGGGGACAGCUCAGGGUUGUUUUGGAGCCUGUUGACUUU", "RBNS enrichment (R)": 0.798}
{"note": "Repeated from above (sample 3):"}
{"Molecule": "B9 (PEX2 RING domain)", "lacZ reporter activity": 0}
{"Molecule": "QLQDEEDDSLCRICMDAVIDCVLLECGHMVTCTKCGKRMSECPICRQYVVRAVHVF (RNF34 RING domain (UniProt Q969K3))", "lacZ reporter activity": 0}
{"Molecule": "B4 (PHF7 RING domain)", "lacZ reporter activity": 0}
{"Molecule": "B2 (TRIM52 RING domain)", "lacZ reporter activity": 0}
{"Molecule": "B10 (TRIM55 RING domain)", "lacZ reporter activity": 0}
{"Molecule": "B8 (ANKIB1 RING domain)", "lacZ reporter activity": 0}
{"Molecule": "KRQCSDVDDICSICQAEFQKPILLICQHIFCEECMTLWFNREKTCPLCRTVISDHINKW (RNFT1 RING domain (UniProt Q5M7Z0))", "lacZ reporter activity": 0}
